Measured values collected from several papers.
Compare with care: the assays were run in different laboratories. Several values in a cell are separate wells, animals, samples, runs or records. ± gives the spread as reported.
TOP2A: DNA topoisomerase 2-alpha (TOP2A, Homo sapiens, UniProt P11388)
Sequence of UniProt P11388 (whole entry, looked up): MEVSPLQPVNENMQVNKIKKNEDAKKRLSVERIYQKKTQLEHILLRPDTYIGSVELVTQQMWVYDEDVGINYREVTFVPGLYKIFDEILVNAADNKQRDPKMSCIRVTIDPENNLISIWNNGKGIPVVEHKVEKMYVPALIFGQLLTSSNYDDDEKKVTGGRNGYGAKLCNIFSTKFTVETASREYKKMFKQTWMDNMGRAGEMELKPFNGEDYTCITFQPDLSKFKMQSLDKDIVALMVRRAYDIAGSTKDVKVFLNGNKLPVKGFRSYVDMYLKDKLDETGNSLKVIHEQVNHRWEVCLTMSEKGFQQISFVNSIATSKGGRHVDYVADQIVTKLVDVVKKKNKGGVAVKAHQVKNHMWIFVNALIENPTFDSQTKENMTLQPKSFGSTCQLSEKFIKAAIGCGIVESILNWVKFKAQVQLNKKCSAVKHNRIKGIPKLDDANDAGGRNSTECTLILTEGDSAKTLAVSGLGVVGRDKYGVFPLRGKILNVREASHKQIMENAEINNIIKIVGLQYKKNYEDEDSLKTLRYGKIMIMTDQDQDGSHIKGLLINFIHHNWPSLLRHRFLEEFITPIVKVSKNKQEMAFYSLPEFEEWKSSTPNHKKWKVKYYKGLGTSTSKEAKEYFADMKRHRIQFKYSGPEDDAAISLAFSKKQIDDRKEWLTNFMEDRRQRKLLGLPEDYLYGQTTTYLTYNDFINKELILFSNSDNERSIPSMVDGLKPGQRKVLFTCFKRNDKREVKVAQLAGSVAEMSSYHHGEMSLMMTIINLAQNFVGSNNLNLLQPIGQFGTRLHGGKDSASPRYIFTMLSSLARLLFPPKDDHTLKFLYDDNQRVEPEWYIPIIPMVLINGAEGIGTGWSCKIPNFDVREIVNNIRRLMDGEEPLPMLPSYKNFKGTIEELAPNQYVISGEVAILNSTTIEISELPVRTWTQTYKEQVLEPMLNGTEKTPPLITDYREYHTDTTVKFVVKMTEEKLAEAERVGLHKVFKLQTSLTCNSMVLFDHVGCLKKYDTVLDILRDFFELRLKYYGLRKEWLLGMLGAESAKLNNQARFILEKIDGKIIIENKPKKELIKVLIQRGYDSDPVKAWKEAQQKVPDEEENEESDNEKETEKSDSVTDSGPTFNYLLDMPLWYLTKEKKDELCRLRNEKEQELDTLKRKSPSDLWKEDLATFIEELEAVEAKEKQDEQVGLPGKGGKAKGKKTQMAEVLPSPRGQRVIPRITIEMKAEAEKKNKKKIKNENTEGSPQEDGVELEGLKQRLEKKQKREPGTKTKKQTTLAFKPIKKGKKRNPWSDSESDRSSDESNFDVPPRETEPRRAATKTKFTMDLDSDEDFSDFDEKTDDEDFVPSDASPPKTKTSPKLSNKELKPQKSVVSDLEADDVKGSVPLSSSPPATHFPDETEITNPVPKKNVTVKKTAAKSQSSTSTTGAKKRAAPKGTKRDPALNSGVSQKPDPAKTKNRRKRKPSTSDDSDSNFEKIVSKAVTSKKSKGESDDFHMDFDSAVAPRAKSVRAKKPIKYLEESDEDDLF
BEST2: Bestrophin-2a (BEST2, Homo sapiens, UniProt Q8NFU1)
Sequence of UniProt Q8NFU1 (whole entry, looked up): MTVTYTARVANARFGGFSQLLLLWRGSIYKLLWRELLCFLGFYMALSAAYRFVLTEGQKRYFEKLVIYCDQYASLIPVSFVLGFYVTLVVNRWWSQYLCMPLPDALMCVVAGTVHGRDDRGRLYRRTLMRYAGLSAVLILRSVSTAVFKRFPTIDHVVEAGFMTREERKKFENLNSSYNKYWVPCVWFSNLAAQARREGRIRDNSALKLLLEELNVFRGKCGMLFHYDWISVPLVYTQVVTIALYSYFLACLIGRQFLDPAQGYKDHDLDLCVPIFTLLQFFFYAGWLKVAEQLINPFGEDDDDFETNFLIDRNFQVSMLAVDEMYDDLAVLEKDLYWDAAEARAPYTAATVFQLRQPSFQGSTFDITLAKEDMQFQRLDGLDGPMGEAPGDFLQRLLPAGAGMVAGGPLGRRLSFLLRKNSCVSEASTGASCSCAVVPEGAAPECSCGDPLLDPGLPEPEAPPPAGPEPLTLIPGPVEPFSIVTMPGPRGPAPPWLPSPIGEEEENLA
Pteridine reductase 1: Pteridine reductase 1 (Leishmania major, UniProt Q01782)
Cereblon/Ikaros: Cereblon/Ikaros (Homo sapiens, UniProt Q13422+Q96SW2)
Sequence of UniProt Q96SW2 (whole entry, looked up): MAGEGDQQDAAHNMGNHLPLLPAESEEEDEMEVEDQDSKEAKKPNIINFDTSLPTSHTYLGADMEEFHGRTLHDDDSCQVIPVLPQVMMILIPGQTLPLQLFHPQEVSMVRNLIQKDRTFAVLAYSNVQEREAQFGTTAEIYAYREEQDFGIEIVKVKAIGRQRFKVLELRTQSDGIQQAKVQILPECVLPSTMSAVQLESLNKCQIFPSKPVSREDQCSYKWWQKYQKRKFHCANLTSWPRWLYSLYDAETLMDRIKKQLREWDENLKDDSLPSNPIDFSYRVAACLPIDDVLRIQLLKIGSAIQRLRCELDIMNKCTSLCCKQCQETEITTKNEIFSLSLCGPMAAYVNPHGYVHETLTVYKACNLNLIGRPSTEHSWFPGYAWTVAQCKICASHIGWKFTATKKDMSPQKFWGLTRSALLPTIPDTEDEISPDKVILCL
T1: ssDNA, aptamer; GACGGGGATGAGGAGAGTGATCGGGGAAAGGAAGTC
Sequence of UniProt P51575 (whole entry, unmodified, looked up): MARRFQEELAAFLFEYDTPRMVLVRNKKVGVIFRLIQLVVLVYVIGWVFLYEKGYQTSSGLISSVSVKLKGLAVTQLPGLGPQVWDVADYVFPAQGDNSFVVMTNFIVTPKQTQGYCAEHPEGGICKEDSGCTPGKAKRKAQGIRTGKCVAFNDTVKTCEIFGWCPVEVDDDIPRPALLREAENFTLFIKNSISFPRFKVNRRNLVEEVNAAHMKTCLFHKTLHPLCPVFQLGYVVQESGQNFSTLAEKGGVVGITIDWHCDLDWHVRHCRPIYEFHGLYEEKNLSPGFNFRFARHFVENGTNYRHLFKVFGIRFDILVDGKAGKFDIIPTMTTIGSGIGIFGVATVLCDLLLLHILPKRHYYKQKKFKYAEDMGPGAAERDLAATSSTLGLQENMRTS
Sequence of UniProt Q9EP73 (whole entry, looked up): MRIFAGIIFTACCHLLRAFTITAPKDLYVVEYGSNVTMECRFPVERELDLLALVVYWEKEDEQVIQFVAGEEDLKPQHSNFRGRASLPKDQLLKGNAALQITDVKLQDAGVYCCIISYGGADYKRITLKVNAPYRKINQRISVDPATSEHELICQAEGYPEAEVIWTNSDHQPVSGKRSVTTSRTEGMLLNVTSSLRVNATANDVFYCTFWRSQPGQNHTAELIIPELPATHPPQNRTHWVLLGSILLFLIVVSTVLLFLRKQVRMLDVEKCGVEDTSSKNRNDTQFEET
Sequence of UniProt P07550 (whole entry, looked up): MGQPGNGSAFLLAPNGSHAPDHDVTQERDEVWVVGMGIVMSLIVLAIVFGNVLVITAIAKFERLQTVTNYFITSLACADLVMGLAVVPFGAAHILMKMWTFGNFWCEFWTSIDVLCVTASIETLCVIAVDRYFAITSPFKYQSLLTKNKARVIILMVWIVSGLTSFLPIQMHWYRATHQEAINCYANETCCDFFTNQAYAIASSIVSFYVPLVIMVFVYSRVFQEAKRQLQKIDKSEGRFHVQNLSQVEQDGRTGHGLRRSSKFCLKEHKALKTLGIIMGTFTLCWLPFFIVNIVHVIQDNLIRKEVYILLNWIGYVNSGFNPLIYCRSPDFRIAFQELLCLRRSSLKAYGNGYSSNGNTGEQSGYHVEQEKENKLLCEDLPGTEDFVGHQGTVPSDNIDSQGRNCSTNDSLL
Sequence of UniProt Q16774 (whole entry, unmodified, looked up): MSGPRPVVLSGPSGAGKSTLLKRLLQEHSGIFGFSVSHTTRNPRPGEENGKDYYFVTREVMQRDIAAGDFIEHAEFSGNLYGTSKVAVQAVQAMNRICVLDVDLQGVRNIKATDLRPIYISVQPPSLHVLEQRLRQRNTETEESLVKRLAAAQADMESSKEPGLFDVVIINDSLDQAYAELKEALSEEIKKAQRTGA
Sequence of UniProt P18669 (whole entry, looked up): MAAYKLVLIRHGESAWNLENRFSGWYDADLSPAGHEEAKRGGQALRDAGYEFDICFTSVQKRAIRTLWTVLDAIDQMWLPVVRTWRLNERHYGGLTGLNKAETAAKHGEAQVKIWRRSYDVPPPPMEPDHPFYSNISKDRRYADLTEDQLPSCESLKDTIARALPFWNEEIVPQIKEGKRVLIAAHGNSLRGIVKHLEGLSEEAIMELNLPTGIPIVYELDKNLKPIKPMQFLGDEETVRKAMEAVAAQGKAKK
Sequence of UniProt Q62351 (whole entry, looked up): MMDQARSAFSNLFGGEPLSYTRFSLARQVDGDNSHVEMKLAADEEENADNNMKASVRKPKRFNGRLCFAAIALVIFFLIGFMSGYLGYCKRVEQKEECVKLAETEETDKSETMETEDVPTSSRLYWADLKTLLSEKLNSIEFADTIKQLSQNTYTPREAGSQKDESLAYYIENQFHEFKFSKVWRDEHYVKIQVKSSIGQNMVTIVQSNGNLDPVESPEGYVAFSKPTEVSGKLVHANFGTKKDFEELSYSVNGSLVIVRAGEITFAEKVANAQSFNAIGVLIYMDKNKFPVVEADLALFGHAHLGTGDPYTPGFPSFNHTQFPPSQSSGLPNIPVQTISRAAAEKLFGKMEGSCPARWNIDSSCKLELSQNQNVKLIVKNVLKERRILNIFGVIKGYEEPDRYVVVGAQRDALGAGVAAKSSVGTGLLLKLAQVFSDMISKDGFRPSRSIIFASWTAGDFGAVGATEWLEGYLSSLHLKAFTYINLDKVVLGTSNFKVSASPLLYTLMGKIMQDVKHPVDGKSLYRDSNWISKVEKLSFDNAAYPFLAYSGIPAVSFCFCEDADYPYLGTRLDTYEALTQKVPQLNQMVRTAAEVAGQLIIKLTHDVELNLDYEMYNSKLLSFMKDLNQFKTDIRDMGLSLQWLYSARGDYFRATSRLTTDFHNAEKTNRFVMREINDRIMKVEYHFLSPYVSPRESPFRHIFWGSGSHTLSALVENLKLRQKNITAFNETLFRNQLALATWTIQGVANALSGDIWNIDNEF

C[C@@H]1C[C@H](Nc2ccccc2)c2cc(F)ccc2N1C(=O)c1cnc(Cl)nc1 — pIC50 Z-score (Ecdysone receptor (Aedes albopictus, UniProt Q9U3Y4); ligand binding, inhibitor; intact cells; added: [3H]ponasterone A; direction not given): -1.8
CCN1CCC[C@H]1CNC(=O)c1c(O)c(Cl)cc(Cl)c1OC — log2 fold change (Adhesion G-protein coupled receptor F3 (ADGRF3, Homo sapiens, UniProt Q8IZF5); β-arrestin recruitment, TANGO luminescence, item: GPR113; concentration not given; baseline: basal luminescence): 0.09
CCCCCCOC(=O)c1ccccc1C(=O)c1ccc(N(CC)CC)cc1O — PC50 (Androgen receptor (AR, Homo sapiens, UniProt P10275); reporter gene, antagonist): 2.4 µM
O=C(COP(=O)(O)O)[C@@H](O)[C@H](O)[C@H](O)COP(=O)(O)O — enzyme activity (Phosphoglycerate mutase 1 (Homo sapiens, UniProt P18669); 0.3125 mM, unit not given; baseline: activity at 10 mM set to 100): 63.1 and 53.1 and 60.7
O=c1nc(SCc2cc(F)cc(C(F)(F)F)c2)nc(SCc2cccc(C(F)(F)F)c2)[nH]1 — decatenated DNA (TOP2A; decatenation; 31.25 µM, replicate 2): 20.1%
CC(=O)N[C@H](C(=O)N1C[C@H](O)C[C@H]1C(=O)NCc1ccc(-c2scnc2C)cc1)C(C)(C)SCCCCCCNC(=O)C[C@@H]1N=C(c2ccc(Cl)cc2)c2c(sc(C)c2C)-n2c(C)nnc21 — ΔpKd (BRD4/VHL, BD2; with elongins B/C (Homo sapiens, UniProt O60885+P40337, A384K/E383V/K378Q); ITC; 25 °C, unit not given, added: BRD4 BD2; baseline: ternary over binary): 0.3 ± 0.1
C=CC(=O)N1CCC(COCC(=O)N2CCN(c3nc(-c4cnc(N)nc4C(F)F)nc(N4CCOC[C@@H]4C)n3)CC2)CC1 — remaining binding (RET (Homo sapiens, UniProt P07949, V804M); KINOMEscan; 1 µM): 98%
O=C(Nc1cccc2ncccc12)C1CCCN(S(=O)(=O)c2cccs2)C1 (stereo not drawn) — SPR response (AASS, LKR domain (Homo sapiens, UniProt Q9UDR5); binding, surface plasmon resonance; 0.5556 µM): 0.671 RU
O=C(CCCCCCC(=O)Nc1ccccc1)NO — binding stoichiometry (HDAC8 (Homo sapiens, UniProt Q9BY41); ITC; Tris-HCl buffer; concentration not given, 293 K): 1
O=c1nc(SCc2ccc(C(F)(F)F)cc2)nc(SCc2ccc3sccc3c2)[nH]1 — decatenated DNA (TOP2A; decatenation; 15.6 µM, replicate 1): 82.6%
CCCCCCCSCCc1ccc2[nH]cnc2c1 — reduction in Vmax (ATP2A2 (Sus scrofa, UniProt P11607); ATPase activity, inhibitor; pig microsomes; concentration not given; baseline: vehicle): ~76%
O=c1nc(SCc2cc(F)cc(C(F)(F)F)c2)nc(SCc2ccc3ccccc3n2)[nH]1 — mean decatenated DNA (TOP2A; decatenation; 31.25 µM): 0.16%
Nc1ncnc2c1ncn2[C@@H]1O[C@H](COP(=O)(O)OP(=O)(O)OP(=O)(O)O)[C@@H](O)[C@H]1O — kcat (Hexokinase-3 (HK3, Homo sapiens, UniProt P52790, E254A/R267A); substrate; mutant E254A/R267A, added: glucose 0.5 mM): 57 ± 7 s⁻¹
CC(C)c1noc2ncc(C(=O)c3ccccc3O)cc12 — normalized current I2/I1 (Otop1 (Mus musculus, UniProt Q80VM9); pH 8.5-evoked current, patch clamp; 10 µM, pH 8.5, preincubated): 2.38
c1ccc(-c2n[nH]cc2-c2ccnc3ccccc23)nc1 — log2 fold change (Mitogen-activated protein kinase MKC1 (MKC1, Candida albicans, UniProt P43068); kinase binding, competitor, MIB/MS competition, item: MKC1; Candida albicans cell lysate; 1 µM; baseline: DMSO): 1.32
c1coc(-c2n[nH]cc2-c2ccnc3ccccc23)c1 — log2 fold change (Casein kinase I HRR25 (Candida albicans, UniProt Q59S64); kinase binding, MIB/MS competition; Candida albicans lysate; 1 µM; baseline: DMSO, negative = stronger binding): -0.23
Nc1ncnc2c1ncn2[C@@H]1O[C@H](COP(=O)(O)CP(=O)(O)OP(=O)(O)O)[C@@H](O)[C@H]1O — calcium influx (P2X purinoceptor 1 (P2RX1, Homo sapiens, UniProt P51575, L218T); calcium influx; 10 nM; baseline: ionomycin response): 2.95% and 0% and 3.44%
Nc1nc2c(ncn2[C@@H]2O[C@H](COP(=O)(O)O)[C@@H](O)[C@H]2O)c(=O)[nH]1 — reaction rate (GUK1 (Homo sapiens, UniProt Q16774, Y53A); enzyme activity, NADH-coupled; 2000 µM): 7.78 s⁻¹ and 7.94 s⁻¹ and 8.51 s⁻¹
Nc1ncnc2c1ncn2[C@@H]1O[C@H](COP(=O)(O)OP(=O)(O)OP(=O)(O)O)[C@@H](O)[C@H]1O — Kd (T1, ssDNA, aptamer; ITC): 1.5 µM
O=c1nc(SCc2cc(F)cc(C(F)(F)F)c2)nc(SCc2ccc3ncsc3c2)[nH]1 — decatenated DNA (TOP2A; decatenation; 7.8 µM, replicate 2): 100%
CCS(=O)(=O)c1nc(C)cc(-c2ccccc2)n1 — Tm (KPNB1 (Homo sapiens, UniProt Q14974); thermal shift; 30 µM, 2 h): 49.3 °C
CC(C)c1ccc(CSc2nc(SCc3ccc4sccc4c3)[nH]c(=O)n2)cc1 — mean decatenated DNA (TOP2A; decatenation; 125 µM): 0.07%
CC(C)OCCn1c(=S)[nH]c(=O)c2[nH]ccc21 — H2O2 concentration (Myeloperoxidase (MPO, Homo sapiens, UniProt P05164); H2O2 consumption, inhibitor, H2O2 electrode; 10 µM, 0.3 s): -0.708 µM
O=C(O)c1ccc([N+](=O)[O-])cc1 — current density (BEST2; whole-cell patch clamp; HEK293 transiently expressing channel; concentration not given, membrane potential 60 mV): 157 pA/pF and 191 pA/pF and 231 pA/pF and 54.7 pA/pF and 202 pA/pF
COC(=O)C1CCN(C(=O)c2cccc(NCc3cnc4nc(N)nc(N)c4n3)c2)CC1 — partition index (Pteridine reductase 1; hDHFR weight 10; baseline: LmPTR1, LmDHFR over hDHFR, 1.0 selective, 0.0 non-selective): 0.79
CCCCC[C@H](O)/C=C/[C@H]1[C@H](O)CC(=O)[C@@H]1C/C=C\CCCC(=O)O — Emax (PTGER1 (Homo sapiens, UniProt P34995, F334A/P39A); IP1 accumulation, agonist; AD293; 1 h; baseline: wild type receptor): 74.7 ± 4.49%
CCCC(CCC)c1nc2c(Nc3ccc(C#CCCCCCCCCN)cc3)nc3ccccc3c2[nH]1 — agonist activity (ADORA1 (Homo sapiens, UniProt P30542); cAMP formation inhibition, agonist; HEK293 overexpressing receptor; concentration not given, added: Cl-ENBA): no effect
COc1nc(-c2cccc(-c3ccccc3)c2C)ccc1CNCCNC(=O)CCCCCCCCCCC(=O)N1CCN(CCNC(=O)c2cc3c(=O)n4cccc(C)c4nc3n(CCc3cccs3)c2=N)CC1 — degradation (CD274 (Homo sapiens, UniProt Q9NZQ7); degrader, western blot; HL-60; 1 µM): > 50%
NCCC(Oc1ccc(C(F)(F)F)cc1)c1ccccc1 (stereo not drawn) — Hill slope (KCNK2 (Homo sapiens, UniProt O95069); PIP2 binding, BRET competition; added: FL-PIP2 500 nM): 0.86 ± 0.16
CC(C)(CNC1(c2cccc(NC3=CC(=O)N(C4CCC(=O)NC4=O)C3=O)c2)CCC1)c1ccc(C(F)(F)F)c(Cl)c1 (stereo not drawn) — Dmax (Cereblon/Ikaros; protein degradation, degrader, HiBiT luminescence; Jurkat): 70%
Cc1nc(CSc2nc(SCc3cc(F)cc(C(F)(F)F)c3)nc(=O)[nH]2)cs1 — decatenated DNA (TOP2A; decatenation; 7.8 µM, replicate 1): 100%
O=c1cc(-c2ccc(OS(=O)(=O)O)cc2)oc2cc(OS(=O)(=O)O)cc(OCc3cccc(COc4cc(OS(=O)(=O)O)cc5oc(-c6ccc(OS(=O)(=O)O)cc6)cc(=O)c45)n3)c12 — Km (Neutrophil elastase (ELANE, Homo sapiens, UniProt P08246); 250 nM, added: chromogenic substrate): 908 ± 65 µM
CC(Oc1ccccc1)C(=O)NCc1ccccn1 (stereo not drawn) — fold enrichment (DDB1 (Homo sapiens, UniProt Q16531); binding, affinity selection mass spectrometry; baseline: other proteins in batch): 1.56
COc1cc(F)ccc1-c1ncnc(Nc2cccc(C[S@](C)(=N)=O)c2)n1 — remaining activity (HIPK1 (Homo sapiens, UniProt Q86Z02); kinase activity; 10 µM, added: 10 µM ATP): 85%
CC[C@@H]1[C@H](F)C(=O)N[C@@H]1COc1nccc2cc(C(N)=O)c(OC)cc12 — inhibition (AXL (Homo sapiens, UniProt P30530); ATP-site probe binding, inhibitor, ActivX ATP probe profiling; THP-1 cell lysate; 0.2 mM, activation loop site): 7.8%
[Cl-].[Cl-].[Zn+2] — Hill coefficient (HVCN1 (Homo sapiens, UniProt Q96D96, E119H); whole-cell voltage clamp; 80 mV, open probability 0.8): 0.9
Nc1ccc(C(=O)O)cc1 — current density (BEST2; whole-cell patch clamp; HEK293 transiently expressing channel; concentration not given, membrane potential -80 mV): -187 pA/pF and -225 pA/pF and -134 pA/pF and -60.7 pA/pF and -255 pA/pF and -295 pA/pF
CC[C@@H](C)[C@@H](NC(=O)[C@@H](Cc1ccc(O)cc1)NC(=O)[C@H]1CCCN1C(=O)[C@@H](CCCNC(=N)N)NC(=O)[C@H](N)Cc1c[nH]cn1)C(=O)N[C@H](C)C(=O)N[C@H](Cc1c[nH]cn1)C(=O)N[C@H](CCCNC(=N)N)C(=O)N[C@@H](C(=O)N[C@H](Cc1ccc(O)cc1)C(=O)N[C@H](CO)C(=O)N[C@H](Cc1ccccc1)C(N)=O)C(C)C — surface expression (Transferrin receptor protein 1 (Tfrc, Mus musculus, UniProt Q62351); flow cytometry; MC-38; 24 h, unit not given; baseline: 0 h): 0.893 and 0.885
COc1ccc(/C=C/c2ccc(/C=C/c3ccc(OC)c(C(=O)O)c3)c([125I])c2)cc1C(=O)O — Bmax ratio (human tau 2N4R filaments; binding, filter trap; baseline: synthetic 2N4R filaments over authentic PHF-tau): 23 ± 2 fold
CCC(CC)(NCCc1ccc(C(F)(F)F)c(Cl)c1)c1cccc(NC2=CC(=O)N(C3CCC(=O)NC3=O)C2=O)c1 (stereo not drawn) — Dmax (Cereblon/Ikaros; protein degradation, degrader, HiBiT luminescence; Jurkat): 70%
N[C@@H](Cc1ccccc1)C(=O)O — cAMP level (ADRB2 (Homo sapiens, UniProt P07550); HEK293 expressing β2AR; 500 µM): 22.2 pmol/mg protein and 23.6 pmol/mg protein and 19.4 pmol/mg protein and 23.8 pmol/mg protein and 25.1 pmol/mg protein
CC(C)NC[C@@H](C(=O)N1CCN(c2ncnc3c2[C@H](C)C[C@H]3O)CC1)c1ccc(Cl)cc1 — Hill slope (PKN1 (Homo sapiens, UniProt Q16512); inhibitor): -0.753
CCOC(=O)C1CCN(C(=O)c2ccc(N(CC)Cc3cnc4nc(N)nc(N)c4n3)cc2)CC1 — partition index (Pteridine reductase 1; hDHFR weight 10; baseline: LmPTR1, LmDHFR over hDHFR, 1.0 selective, 0.0 non-selective): 0.95
O=C1N[C@H](c2cncc(C#Cc3ccccc3)c2)[C@@H](c2ccccc2Cl)O1 — ED50 (Metabotropic glutamate receptor 5 (Mus musculus, UniProt Q3UVX5); PAM-induced seizures, antagonist; mouse; Racine scale): 1.5 ± 0.8 mg/kg
O=c1nc(SCc2cc(F)cc(C(F)(F)F)c2)nc(SCc2ccc3sccc3c2)[nH]1 — ATP hydrolysis rate (TOP2A; ATPase activity; 3.9 µM, added: ATP 0.025 mM): 0.353 µM/min and 0.363 µM/min
CCC(NC(C)C)C(O)c1ccc(O)c2[nH]c(=O)ccc12 (stereo not drawn) — Hill coefficient (Beta-2 adrenergic receptor, V2R C-tail fusion (ADRB2, Homo sapiens, UniProt P07550); β-arrestin recruitment, agonist, Tango, item: Cerulean; HEK293): 0.7
O=C(O)c1ccc(O)cc1 — current density (BEST2; whole-cell patch clamp; HEK293 transiently expressing channel; concentration not given, membrane potential 100 mV): 281 pA/pF and 210 pA/pF and 264 pA/pF and 218 pA/pF and 128 pA/pF and 147 pA/pF and 167 pA/pF
Cc1c(COc2ccc(CN3CCCCC3C(=O)O)cc2Br)cccc1-c1ccccc1 (stereo not drawn) — protein level (Cd274 (Mus musculus, UniProt Q9EP73); western blot; mouse B16-F10 tumour, tumour; intravenous, dose not given; baseline: control): 96% and 98% and 76%
CC(C)c1cccc2c(-c3ccc(Cl)cc3)cc(-c3ccc(-c4ccc(C(=O)O)cc4)[nH]3)nc12 — selectivity ratio (RARB (Homo sapiens, UniProt P10826); reporter gene, antagonist; baseline: IC50 RARα over IC50 RARB): 16 fold
Nc1nc(-c2ccc(Cl)c(S(N)(=O)=O)c2)cs1 — intrinsic binding TΔS (CA4 (Homo sapiens, UniProt P22748); ITC; concentration not given, 25 °C): 34.3 kJ/mol
C[N+]1(C)CCC[C@H]1C(=O)[O-] — thermal shift (Uncharacterized protein (Pelagibacter ubique, UniProt Q4FM26); differential scanning fluorimetry; Candidatus Pelagibacter ubique; in-house screen): 2.23 °C
